Experimental data gathered from unrelated publications.
Protocols differ between the studies behind these lines. ± marks the error that the study gave. No end group written: not given here.
CHRM1: Muscarinic acetylcholine receptor M1 (CHRM1, Homo sapiens, UniProt P11229)
UniProt P11229, sequence (whole entry, looked up): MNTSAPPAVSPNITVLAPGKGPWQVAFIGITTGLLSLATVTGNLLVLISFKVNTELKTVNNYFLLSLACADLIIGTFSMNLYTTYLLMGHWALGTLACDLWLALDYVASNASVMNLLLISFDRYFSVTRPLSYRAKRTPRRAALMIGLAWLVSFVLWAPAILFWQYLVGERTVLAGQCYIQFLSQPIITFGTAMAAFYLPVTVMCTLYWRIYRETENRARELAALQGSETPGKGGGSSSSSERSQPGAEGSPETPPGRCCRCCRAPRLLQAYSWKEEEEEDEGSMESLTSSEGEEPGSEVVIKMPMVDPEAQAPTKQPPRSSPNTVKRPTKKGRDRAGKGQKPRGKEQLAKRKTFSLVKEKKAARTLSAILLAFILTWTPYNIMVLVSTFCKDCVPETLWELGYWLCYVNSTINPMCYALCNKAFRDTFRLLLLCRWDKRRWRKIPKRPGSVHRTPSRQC
T1: c-di-GMP riboswitch (Clostridium acetobutylicum); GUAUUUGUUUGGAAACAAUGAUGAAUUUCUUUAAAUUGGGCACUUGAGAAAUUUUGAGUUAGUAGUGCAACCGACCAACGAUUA
B1: side-chain stapled; chain CRTKQCARKSTGG (also: sidechain bridge or staple (positions not given here))
UniProt P31424, sequence (whole entry, looked up): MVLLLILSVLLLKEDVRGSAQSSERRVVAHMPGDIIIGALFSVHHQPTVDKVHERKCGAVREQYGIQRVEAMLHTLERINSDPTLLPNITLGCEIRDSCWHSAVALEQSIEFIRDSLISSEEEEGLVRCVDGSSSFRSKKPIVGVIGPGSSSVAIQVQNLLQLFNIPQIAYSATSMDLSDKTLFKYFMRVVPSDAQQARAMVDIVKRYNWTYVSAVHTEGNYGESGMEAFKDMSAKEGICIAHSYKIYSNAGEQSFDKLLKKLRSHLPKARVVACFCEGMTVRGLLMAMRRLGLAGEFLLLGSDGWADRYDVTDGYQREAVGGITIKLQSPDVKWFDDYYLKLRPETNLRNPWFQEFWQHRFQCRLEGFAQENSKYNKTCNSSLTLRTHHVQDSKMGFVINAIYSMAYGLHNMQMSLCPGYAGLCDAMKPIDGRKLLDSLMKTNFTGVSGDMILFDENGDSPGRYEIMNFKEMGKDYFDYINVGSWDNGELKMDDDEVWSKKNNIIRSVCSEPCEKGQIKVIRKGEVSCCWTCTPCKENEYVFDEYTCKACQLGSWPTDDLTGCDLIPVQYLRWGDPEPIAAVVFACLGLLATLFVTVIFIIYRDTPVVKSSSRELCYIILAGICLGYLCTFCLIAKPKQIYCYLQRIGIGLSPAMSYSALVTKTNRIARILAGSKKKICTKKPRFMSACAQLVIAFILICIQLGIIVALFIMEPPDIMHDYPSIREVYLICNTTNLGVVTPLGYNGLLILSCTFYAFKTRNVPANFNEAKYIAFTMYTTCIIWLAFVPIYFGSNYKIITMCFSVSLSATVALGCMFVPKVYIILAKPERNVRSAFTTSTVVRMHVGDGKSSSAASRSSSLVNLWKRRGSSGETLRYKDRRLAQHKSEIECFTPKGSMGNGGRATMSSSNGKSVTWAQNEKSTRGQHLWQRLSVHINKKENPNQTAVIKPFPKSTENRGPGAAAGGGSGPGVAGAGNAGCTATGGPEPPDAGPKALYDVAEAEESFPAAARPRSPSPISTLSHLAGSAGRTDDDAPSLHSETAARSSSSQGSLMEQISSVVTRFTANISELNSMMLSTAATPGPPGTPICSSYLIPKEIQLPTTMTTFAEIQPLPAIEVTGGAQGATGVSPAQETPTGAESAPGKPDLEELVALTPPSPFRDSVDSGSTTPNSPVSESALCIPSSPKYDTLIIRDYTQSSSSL
UniProt Q21974, sequence (whole entry, unmodified, looked up): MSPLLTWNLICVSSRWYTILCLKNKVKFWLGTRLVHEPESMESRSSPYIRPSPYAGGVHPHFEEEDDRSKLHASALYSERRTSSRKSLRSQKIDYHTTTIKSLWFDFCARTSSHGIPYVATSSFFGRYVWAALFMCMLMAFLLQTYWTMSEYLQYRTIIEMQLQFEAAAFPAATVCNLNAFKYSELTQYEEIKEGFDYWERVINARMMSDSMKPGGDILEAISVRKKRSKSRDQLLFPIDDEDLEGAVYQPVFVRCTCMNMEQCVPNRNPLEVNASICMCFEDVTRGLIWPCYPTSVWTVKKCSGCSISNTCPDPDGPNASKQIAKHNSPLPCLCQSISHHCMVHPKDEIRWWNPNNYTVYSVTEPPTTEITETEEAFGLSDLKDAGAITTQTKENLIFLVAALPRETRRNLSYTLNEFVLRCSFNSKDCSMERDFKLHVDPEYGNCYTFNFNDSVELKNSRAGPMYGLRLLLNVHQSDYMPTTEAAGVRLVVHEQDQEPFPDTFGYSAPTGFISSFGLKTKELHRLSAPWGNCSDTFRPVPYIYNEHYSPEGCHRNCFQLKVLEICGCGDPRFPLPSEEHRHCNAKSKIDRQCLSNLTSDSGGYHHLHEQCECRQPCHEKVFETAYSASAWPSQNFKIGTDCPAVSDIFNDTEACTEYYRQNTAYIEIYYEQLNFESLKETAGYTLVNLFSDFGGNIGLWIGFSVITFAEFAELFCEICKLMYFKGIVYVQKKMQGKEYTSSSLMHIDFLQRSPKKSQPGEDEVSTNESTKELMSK
UniProt Q8WTS6, sequence (whole entry, looked up): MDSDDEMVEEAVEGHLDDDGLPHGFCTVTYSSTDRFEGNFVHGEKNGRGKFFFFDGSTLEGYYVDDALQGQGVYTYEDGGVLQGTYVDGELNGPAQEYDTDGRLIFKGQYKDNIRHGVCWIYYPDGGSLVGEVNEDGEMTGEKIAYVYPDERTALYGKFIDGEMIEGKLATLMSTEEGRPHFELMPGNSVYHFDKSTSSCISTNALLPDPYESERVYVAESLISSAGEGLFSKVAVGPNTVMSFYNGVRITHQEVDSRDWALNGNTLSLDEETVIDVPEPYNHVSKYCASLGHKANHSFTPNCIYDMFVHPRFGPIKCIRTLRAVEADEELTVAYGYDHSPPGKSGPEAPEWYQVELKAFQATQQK
UniProt Q9Y5Y9, sequence (whole entry, looked up): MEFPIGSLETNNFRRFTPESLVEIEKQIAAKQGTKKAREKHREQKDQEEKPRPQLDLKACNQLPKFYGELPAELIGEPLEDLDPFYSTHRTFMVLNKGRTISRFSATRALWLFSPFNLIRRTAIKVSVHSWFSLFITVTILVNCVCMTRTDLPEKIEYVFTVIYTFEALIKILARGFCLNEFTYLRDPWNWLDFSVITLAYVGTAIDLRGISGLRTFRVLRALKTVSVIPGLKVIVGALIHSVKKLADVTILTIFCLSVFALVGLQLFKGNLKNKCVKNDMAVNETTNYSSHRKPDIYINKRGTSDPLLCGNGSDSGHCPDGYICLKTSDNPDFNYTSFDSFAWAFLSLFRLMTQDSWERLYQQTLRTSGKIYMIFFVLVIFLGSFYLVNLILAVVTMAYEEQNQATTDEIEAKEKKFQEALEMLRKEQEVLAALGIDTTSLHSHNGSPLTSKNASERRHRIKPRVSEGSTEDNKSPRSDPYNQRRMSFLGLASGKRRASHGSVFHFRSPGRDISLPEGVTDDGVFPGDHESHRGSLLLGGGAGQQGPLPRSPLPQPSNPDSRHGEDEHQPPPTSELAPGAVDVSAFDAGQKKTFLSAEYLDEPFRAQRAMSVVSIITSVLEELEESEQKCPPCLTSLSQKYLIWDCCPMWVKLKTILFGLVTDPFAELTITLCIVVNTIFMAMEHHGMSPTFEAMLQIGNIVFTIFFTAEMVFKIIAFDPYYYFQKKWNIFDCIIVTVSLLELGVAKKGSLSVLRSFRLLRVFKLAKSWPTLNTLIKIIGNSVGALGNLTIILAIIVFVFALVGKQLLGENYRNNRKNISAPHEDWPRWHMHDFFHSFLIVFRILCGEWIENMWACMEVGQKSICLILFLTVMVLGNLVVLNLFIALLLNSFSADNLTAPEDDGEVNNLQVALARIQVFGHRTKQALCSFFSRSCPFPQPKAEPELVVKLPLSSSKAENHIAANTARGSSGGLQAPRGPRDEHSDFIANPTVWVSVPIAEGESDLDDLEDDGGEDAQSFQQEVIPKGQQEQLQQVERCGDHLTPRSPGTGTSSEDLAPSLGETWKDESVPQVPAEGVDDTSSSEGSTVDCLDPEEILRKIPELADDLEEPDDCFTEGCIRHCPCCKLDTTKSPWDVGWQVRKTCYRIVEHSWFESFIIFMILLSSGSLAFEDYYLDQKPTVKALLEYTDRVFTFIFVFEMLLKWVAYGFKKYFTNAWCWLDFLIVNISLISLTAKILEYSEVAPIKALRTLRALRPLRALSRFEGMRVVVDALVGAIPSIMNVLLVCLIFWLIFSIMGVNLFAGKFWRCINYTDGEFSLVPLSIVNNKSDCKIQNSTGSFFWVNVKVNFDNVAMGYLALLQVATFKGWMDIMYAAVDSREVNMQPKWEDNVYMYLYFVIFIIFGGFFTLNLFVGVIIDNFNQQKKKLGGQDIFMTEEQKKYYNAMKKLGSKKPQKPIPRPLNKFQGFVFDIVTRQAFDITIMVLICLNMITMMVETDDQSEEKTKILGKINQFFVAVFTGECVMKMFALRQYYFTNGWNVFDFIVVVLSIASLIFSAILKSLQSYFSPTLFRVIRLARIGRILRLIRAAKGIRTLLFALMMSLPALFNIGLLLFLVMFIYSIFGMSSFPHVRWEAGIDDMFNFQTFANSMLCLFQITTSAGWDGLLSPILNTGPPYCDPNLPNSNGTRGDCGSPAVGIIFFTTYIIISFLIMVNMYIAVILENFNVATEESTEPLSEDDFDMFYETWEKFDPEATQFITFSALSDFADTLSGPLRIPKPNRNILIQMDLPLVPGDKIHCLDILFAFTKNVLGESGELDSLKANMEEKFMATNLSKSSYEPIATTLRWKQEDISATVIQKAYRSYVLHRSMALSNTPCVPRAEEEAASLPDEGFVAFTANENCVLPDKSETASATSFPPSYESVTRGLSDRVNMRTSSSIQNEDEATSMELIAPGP

Molecule	target	test	system	conditions	scale	endpoint	value
O=c1cc(-c2ccccc2OCc2ccc(-c3ncco3)cc2)ncn1C1CCCCC1O (centres unmarked)	CHRM1	positive allosteric modulator, IP1 accumulation	CHO-M1 cells	10 µM, 60 min, 37 °C, with: ACh	baseline: ACh alone, higher = stronger potentiation	ΔpEC50 of ACh	1.61 ± 0.23 log units
Brc1cccc2cc[nH]c12	Dehaloperoxidase B, ferric (Amphitrite ornata, UniProt Q9NAV7)	substrate, HPLC	5% methanol	5 min, pH 7, 25 °C, enzyme 10 µM, with: H2O2 500 µM	–	conversion	46.1%
COc1ccc(C)c2sc(C(=O)NCc3ccncc3)nc12	Muscarinic acetylcholine receptor M4 (CHRM4, Homo sapiens, UniProt P08173)	calcium mobilization, positive allosteric modulator	CHO expressing hM4 and Gqi5	concentration not given, with: acetylcholine EC20	–	activity	inactive
COC(=O)c1scc(C)c1NC(=O)C(C)N1CCN(C(C)(C)C)CC1 (centres unmarked)	Sodium channel protein type 10 subunit alpha (SCN10A, Homo sapiens, UniProt Q9Y5Y9)	cell membrane chromatography	–	–	higher = stronger binding	capacity factor k′	0
Nc1nc2c(ccn2[C@@H]2O[C@@H]3COP(=O)(O)O[C@H]4[C@@H](O)[C@H](n5cnc6c(=O)[nH]c(N)nc65)O[C@@H]4COP(=O)(O)O[C@H]3[C@H]2O)c(=O)[nH]1	T1, c-di-GMP riboswitch (Clostridium acetobutylicum)	competitor, competition gel-shift	–	4-24 h, pH 6.8, 22 °C, with: radiolabelled c-di-GMP	–	Kd	0.033 µM
B1	Histone-lysine N-methyltransferase SETD7 (SETD7, Homo sapiens, UniProt Q8WTS6)	peptide methylation, substrate, MALDI-TOF MS	–	10 µM, 3 h, pH 8.0, 37 °C, enzyme 500 nM, with: SAM 30 µM	–	methylation conversion	~65%
CN1CC(=O)NC1=NC(=O)Nc1cccc(Cl)c1	Metabotropic glutamate receptor 5 (Grm5, Rattus norvegicus, UniProt P31424)	calcium mobilization, negative allosteric modulator	–	30 min, with: glutamate	–	pKB	7.31 ± 0.08 -log M
Cc1ccc(COc2ccccc2-c2cc(=O)n(C3CCCCC3O)cn2)cn1 (centres unmarked)	CHRM1	positive allosteric modulator, IP1 accumulation	CHO-M1 cells	1 µM, 60 min, 37 °C, with: ACh	baseline: ACh alone, higher = stronger potentiation	ΔpEC50 of ACh	0.41 ± 0.1 log units
NS(=O)(=O)c1ccc(N2N=C(C(F)(F)F)C[C@H]2c2ccc(F)cc2F)cc1	Cyclooxygenase-2 (Canis lupus familiaris, UniProt Q8SPQ9)	PGE2 formation, inhibitor	dog whole blood	24 h, with: LPS	–	IC20	2.4 µM
C=CC(C)(O)Cc1cc2cc(-c3ccc(O)cc3O)c(=O)oc2cc1O (centres unmarked)	quinone reductase	inducer	Hepa1c1c7	–	–	concentration doubling activity	> 20 µM
O=c1cc(-c2ccccc2OCc2ccc(-c3nccs3)cc2)ncn1C1CCCCC1O (centres unmarked)	CHRM1	allosteric agonist, IP1 accumulation	CHO-M1 cells	10 µM, unit not given	baseline: maximum ACh response	change in baseline activity	75 ± 3.8
C=CC(=O)NCCCC[C@H](NC(=O)OCc1ccccc1)C(=O)NCC(=O)O	Protein-glutamine gamma-glutamyltransferase (TGM2, Homo sapiens, UniProt P21980)	–	–	pH 6.5	–	kinact	0.021 ± 0.00283 s⁻¹
CC(C)n1cc(-c2ccc(COc3ccccc3-c3cc(=O)n(C4CCCCC4O)cn3)cc2)cn1 (centres unmarked)	CHRM1	allosteric agonist, IP1 accumulation	CHO-M1 cells	1 µM, unit not given	baseline: maximum ACh response	change in baseline activity	34.5 ± 2.2
O=C(O)Cc1ccccc1Nc1c(Cl)cccc1Cl	unc-8 (Caenorhabditis elegans, UniProt Q21974, G387E)	ion current, two-electrode voltage clamp	Xenopus oocytes coexpressing MEC-2	30 µM, -85 mV	baseline: uninjected oocytes, positive = inhibition	current change	0.24 µA

Excerpt of the above:
Molecule	target	test	system	conditions	scale	endpoint	value
B1	Histone-lysine N-methyltransferase SETD7 (SETD7, Homo sapiens, UniProt Q8WTS6)	peptide methylation, substrate, MALDI-TOF MS	–	10 µM, 3 h, pH 8.0, 37 °C, enzyme 500 nM, with: SAM 30 µM	–	methylation conversion	~65%
